Experimental data pooled from the literature.
Each line is one published result; not all experiments were run side by side.
Cell line: MDA-MB-231

For `CC(C)C[C@H](NC(=O)[C@H](C)NC(=O)[C@H](CC(C)C)NC(=O)[C@@H](NC(=O)CNC(=O)[C@H](CC(C)C)NC(=O)[C@@H](N)Cc1ccccc1)C(C)C)C(=O)N[C@@H](CC(C)C)C(=O)NCC(=O)N[C@H](Cc1ccc(O)cc1)C(=O)N[C@@H](CC(C)C)C(=O)N[C@@H](C)C(=O)N[C@H](C(=O)N[C@@H](CCCNC(=N)N)C(=O)N1CCC[C@H]1C(=O)N[C@H](Cc1ccccc1)C(=O)N[C@@H](CC(C)C)C(=O)N1CCC[C@H]1C(=O)N[C@@H](CCCCN)C(=O)N[C@H](CCCCN)C(=O)N[C@@H](CCCCN)C(=O)N[C@@H](CCC(N)=O)C(=O)N[C@@H](CCC(N)=O)C(=O)N[C@@H](CCCCN)C(N)=O)C(C)C`, the IC50 was 12.5 µM (cell growth or viability, resazurin).
`C#CCCCC[C@H](C)C[C@@H](C)C(=O)N(C)[C@H](C(=O)N(C)[C@@H](Cc1ccccc1)C(=O)N1CCC[C@H]1C(=O)N1CCC[C@H]1C(C)=O)C(C)C` gave an IC50 of 1 µM (cell growth or viability, SRB).
`COC(=O)C1CN1S(=O)(=O)c1ccccc1` (centres unmarked) gave an IC50 of 23 µM (cell growth or viability, MTT; 48 h).
`C[C@@H](O)[C@H](NC(=O)[C@H](CCCNC(=N)N)NC(=O)[C@H](CCCNC(=N)N)NC(=O)[C@H](CCCNC(=N)N)NC(=O)[C@@H]1CCCN1C(=O)[C@@H](N)CO)C(=O)N1CCC[C@H]1C(=O)N[C@@H](CO)C(=O)N1CCC[C@H]1C(=O)N[C@@H](CCCNC(=N)N)C(=O)N[C@@H](CCCNC(=N)N)C(=O)N[C@@H](CCCNC(=N)N)C(=O)N[C@@H](CCCNC(=N)N)C(=O)N[C@@H](CO)C(=O)N[C@@H](CCC(N)=O)C(=O)N[C@@H](CO)C(=O)N1CCC[C@H]1C(=O)N[C@@H](CCCNC(=N)N)C(=O)N[C@@H](CCCNC(=N)N)C(=O)N[C@@H](CCCNC(=N)N)C(N)=O` gave an IC50 of over 100 µM (cell viability, CellTiter-Blue; 24 h, serum-free medium).
For `CC(N)C(O)CCCCCCCCCCCCCCC(=O)CCCCCCCC(O)C(C)N` (centres unmarked), the IC50 was 93.2 µM (cell growth or viability, resazurin; 96 h).
With `COc1cc(C(c2c(C)nn(-c3ccccc3)c2O)c2c(C)nn(-c3ccccc3)c2O)cc(OC)c1OC` the IC50 was 9.47 µM (cell growth or viability, MTT; 48 h).
`CCCCCCN(CCCCCC)C1=[S+][Au-]2([S]1)[c]1ccccc1-c1cccc[c]12` gave an IC50 of 81.3 µM (cell growth or viability, MTT; 72 h).
`C[C@@H](N)[C@H](O)CCCCCCCC(=O)CCCCCCCCCCCCCC[C@@H](O[C@@H]1O[C@H](CO)[C@@H](O)[C@H](O)[C@H]1O)[C@@H](N)CO` has an IC50 of 1.96 µM (cell growth or viability, resazurin; 96 h).
`CC1OC(OC2CC3OC(C)(C)OCC34C3C(O)CC5(C)C(C6=CC(=O)OC6)CCC5(O)C3CCC4(O)C2)C(O)C(O)C1O` (centres unmarked) has an IC50 of 30.9 µM (cell migration, inhibitor).
The IC50 of `[N-]=[N+]=NCCCN1C(=O)c2cccc3cccc(c23)C1=O` is reported as over 100 µM (cell growth or viability, MTT; 24 h).
`Cc1nn(-c2ccccc2)c(O)c1C(c1cccc([N+](=O)[O-])c1)c1c(C)nn(-c2ccccc2)c1O` gave an IC50 of 26.3 µM (cell growth or viability, MTT; 48 h).
`Cc1cc(C)c(S(=O)(=O)N2CC2C(N)=O)c(C)c1` (centres unmarked) gave an IC50 of 448 µM (cell growth or viability, MTT; 48 h).
The IC50 of `COc1ccc(C(c2c(C)nn(-c3ccccc3)c2O)c2c(C)nn(-c3ccccc3)c2O)cc1` is reported as 9.28 µM (cell growth or viability, MTT; 48 h).
The IC50 of `NC1CCCCC1N.O=C1[O][Pt]([O]C(=O)c2ccc(P(c3ccccc3)c3ccccc3)cc2)([O]C(=O)c2ccc(P(c3ccccc3)c3ccccc3)cc2)[O]C1=O.[Cl][Au].[Cl][Au]` is reported as 5.87 µM (cell growth or viability, resazurin; 72 h).
With `CC(=O)[C@@H]1CCCN1C(=O)[C@@H]1CCCN1C(=O)[C@H](Cc1ccccc1)NC(=O)[C@@H](NC(=O)[C@@H](NC(=O)[C@@H](NC(=O)[C@@H]1CCCN1C(=O)[C@H](C)NC(=O)OC(C)(C)C)C(C)C)C(C)C)C(C)C` the IC50 was 9 µM (cell growth or viability, SRB).
`CCCCCCCCCCCCCC(=O)NCC(=O)N[C@@H](C)C(=O)N[C@@H](CC(C)C)C(=O)N[C@](C)(CC)C(=O)N[C@@H](C)C(=O)N[C@H](C(=O)N[C@H](CO)CC(C)C)[C@@H](C)CC` has an IC50 of 6 µM (cell growth or viability, MTT).
`CCc1ccc(C(c2c(C)nn(-c3ccccc3)c2O)c2c(C)nn(-c3ccccc3)c2O)cc1` gave an IC50 of 38.5 µM (cell growth or viability, MTT; 48 h).
The IC50 of `O=C(O)c1ccc([PH]([Au][Cl])(c2ccccc2)c2ccccc2)cc1` is reported as 16.5 µM (cell growth or viability, resazurin; 72 h).
`CC[C@H](C)[C@H](NC(=O)[C@H](CCCNC(=N)N)NC(=O)[C@H](CCCNC(=N)N)NC(=O)[C@H](CCCNC(=N)N)NC(=O)[C@@H](NC(=O)[C@@H](NC(=O)[C@H](C)NC(=O)[C@H](CCCNC(=N)N)NC(=O)[C@H](CCCNC(=N)N)NC(=O)[C@H](CCCNC(=N)N)NC(=O)[C@@H]1CCCN1C(=O)[C@@H](N)CCCNC(=N)N)[C@@H](C)O)[C@@H](C)O)C(=O)N[C@H](C(=O)N[C@H](C(=O)NCC(=O)N[C@H](C(=O)N[C@@H](CCCNC(=N)N)C(=O)N[C@@H](CCCNC(=N)N)C(=O)N[C@@H](CCCNC(=N)N)C(=O)N[C@@H](CCCNC(=N)N)C(N)=O)[C@@H](C)O)[C@@H](C)O)[C@@H](C)O` gave an IC50 of over 100 µM (cell viability, CellTiter-Blue; 24 h, serum-free medium).
With `N[C@H](CC[As](O)O)C(=O)O` the IC50 was 5 µM (cell viability).
